Published values from different studies.
Numbered parts are unrelated; each lists some results of a single study.
Chain of UniProt P06493 (whole entry, looked up): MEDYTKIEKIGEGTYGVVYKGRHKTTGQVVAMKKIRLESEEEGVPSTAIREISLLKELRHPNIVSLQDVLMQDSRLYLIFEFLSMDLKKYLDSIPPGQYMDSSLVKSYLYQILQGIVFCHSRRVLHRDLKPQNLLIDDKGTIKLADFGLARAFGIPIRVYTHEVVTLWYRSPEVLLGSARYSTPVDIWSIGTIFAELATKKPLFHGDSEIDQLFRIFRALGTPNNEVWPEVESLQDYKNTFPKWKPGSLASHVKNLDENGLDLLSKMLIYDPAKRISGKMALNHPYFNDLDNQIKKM
Chain of UniProt Q15208 (whole entry, looked up): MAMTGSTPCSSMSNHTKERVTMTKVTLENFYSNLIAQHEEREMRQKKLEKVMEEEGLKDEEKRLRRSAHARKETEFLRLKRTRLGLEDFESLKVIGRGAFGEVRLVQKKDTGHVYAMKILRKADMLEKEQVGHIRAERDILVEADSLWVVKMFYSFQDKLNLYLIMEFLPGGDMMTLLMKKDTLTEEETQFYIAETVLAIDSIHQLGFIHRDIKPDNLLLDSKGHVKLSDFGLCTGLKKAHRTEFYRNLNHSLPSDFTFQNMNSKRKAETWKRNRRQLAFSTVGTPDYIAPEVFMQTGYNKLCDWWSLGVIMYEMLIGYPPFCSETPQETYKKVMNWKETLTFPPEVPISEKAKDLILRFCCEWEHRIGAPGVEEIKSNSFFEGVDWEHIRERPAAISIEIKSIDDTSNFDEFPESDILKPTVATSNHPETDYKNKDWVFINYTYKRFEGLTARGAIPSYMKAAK
Chain of UniProt P32298 (whole entry, looked up): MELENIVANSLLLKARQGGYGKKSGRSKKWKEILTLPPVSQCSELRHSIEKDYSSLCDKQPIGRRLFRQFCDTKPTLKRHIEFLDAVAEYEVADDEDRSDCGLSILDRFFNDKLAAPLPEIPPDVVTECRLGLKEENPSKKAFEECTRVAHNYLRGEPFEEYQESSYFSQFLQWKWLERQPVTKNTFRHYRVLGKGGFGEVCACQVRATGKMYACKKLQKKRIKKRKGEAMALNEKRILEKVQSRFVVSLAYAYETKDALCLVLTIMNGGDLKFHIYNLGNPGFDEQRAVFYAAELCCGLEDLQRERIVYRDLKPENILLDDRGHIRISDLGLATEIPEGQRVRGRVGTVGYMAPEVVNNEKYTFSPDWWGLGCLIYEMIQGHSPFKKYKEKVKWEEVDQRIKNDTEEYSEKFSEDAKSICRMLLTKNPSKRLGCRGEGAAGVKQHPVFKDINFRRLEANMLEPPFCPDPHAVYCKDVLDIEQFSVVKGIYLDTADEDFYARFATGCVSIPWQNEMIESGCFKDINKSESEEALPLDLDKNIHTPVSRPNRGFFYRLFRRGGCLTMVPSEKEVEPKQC
Chain of UniProt Q9H4B4 (whole entry, looked up): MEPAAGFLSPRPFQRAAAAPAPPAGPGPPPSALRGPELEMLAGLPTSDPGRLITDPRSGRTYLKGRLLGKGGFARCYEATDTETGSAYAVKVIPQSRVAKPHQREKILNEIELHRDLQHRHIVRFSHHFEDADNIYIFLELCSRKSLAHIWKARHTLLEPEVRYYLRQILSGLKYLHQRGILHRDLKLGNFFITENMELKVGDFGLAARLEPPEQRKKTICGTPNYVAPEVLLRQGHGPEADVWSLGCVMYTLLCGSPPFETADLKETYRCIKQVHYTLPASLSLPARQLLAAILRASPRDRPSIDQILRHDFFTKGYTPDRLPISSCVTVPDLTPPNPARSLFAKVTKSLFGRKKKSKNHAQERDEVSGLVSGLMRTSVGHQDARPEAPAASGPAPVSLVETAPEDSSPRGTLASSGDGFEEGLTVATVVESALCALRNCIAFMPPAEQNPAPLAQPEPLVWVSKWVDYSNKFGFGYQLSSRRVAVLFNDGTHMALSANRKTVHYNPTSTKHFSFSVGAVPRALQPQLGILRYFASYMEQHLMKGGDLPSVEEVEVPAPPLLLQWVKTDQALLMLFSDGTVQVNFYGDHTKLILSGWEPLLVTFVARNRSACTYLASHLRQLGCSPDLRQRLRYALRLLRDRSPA
Chain of UniProt Q9HAZ1 (whole entry, looked up): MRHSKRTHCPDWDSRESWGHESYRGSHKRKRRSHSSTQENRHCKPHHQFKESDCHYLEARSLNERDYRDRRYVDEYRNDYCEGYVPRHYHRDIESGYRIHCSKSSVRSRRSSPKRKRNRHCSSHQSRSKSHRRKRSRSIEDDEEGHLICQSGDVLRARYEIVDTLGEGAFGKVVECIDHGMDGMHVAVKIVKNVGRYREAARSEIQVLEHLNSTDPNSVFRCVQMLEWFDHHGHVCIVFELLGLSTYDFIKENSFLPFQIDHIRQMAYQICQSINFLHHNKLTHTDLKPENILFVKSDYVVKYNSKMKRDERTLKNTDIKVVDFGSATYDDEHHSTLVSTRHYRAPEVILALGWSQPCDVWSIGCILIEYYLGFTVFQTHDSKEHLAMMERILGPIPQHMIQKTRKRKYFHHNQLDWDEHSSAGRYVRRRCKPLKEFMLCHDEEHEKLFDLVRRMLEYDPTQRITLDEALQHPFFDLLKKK
Chain of UniProt P31751 (whole entry, looked up): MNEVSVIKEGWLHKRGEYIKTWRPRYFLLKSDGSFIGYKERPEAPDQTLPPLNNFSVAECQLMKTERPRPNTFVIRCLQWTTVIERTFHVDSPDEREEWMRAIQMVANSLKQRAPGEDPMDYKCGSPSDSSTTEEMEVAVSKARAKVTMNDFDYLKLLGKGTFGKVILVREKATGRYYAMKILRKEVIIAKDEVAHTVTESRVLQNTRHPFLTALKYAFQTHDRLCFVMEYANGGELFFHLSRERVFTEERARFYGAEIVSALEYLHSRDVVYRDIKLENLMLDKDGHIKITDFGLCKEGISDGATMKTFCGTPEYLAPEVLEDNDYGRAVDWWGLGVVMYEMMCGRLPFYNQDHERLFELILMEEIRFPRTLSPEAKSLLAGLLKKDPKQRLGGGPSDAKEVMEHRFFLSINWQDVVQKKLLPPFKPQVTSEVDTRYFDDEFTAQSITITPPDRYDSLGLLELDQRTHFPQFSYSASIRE
Chain of UniProt Q13177 (whole entry, looked up): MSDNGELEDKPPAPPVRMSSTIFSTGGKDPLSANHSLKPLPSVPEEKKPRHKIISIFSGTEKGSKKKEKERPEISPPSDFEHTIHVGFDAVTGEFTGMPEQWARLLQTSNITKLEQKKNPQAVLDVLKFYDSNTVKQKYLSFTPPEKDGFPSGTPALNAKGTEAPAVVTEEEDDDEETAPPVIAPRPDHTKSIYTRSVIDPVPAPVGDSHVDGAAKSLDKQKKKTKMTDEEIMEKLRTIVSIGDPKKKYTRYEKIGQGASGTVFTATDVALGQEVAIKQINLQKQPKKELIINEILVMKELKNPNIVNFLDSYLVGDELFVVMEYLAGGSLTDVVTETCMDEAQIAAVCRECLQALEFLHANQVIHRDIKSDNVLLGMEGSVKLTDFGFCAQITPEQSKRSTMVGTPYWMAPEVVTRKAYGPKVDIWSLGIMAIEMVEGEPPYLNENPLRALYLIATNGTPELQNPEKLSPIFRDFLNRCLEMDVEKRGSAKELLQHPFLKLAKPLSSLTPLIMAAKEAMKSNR
Chain of UniProt P28482 (whole entry, looked up): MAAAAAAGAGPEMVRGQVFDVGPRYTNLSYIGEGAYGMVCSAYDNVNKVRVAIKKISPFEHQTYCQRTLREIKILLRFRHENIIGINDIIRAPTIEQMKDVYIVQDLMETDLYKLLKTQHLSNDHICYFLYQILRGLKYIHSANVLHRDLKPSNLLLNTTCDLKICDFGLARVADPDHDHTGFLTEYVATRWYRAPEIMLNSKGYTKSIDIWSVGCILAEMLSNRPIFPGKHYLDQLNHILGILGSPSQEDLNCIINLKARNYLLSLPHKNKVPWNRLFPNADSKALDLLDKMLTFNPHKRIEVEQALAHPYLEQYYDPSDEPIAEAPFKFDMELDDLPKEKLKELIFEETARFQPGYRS
Chain of UniProt P00519 (whole entry, looked up): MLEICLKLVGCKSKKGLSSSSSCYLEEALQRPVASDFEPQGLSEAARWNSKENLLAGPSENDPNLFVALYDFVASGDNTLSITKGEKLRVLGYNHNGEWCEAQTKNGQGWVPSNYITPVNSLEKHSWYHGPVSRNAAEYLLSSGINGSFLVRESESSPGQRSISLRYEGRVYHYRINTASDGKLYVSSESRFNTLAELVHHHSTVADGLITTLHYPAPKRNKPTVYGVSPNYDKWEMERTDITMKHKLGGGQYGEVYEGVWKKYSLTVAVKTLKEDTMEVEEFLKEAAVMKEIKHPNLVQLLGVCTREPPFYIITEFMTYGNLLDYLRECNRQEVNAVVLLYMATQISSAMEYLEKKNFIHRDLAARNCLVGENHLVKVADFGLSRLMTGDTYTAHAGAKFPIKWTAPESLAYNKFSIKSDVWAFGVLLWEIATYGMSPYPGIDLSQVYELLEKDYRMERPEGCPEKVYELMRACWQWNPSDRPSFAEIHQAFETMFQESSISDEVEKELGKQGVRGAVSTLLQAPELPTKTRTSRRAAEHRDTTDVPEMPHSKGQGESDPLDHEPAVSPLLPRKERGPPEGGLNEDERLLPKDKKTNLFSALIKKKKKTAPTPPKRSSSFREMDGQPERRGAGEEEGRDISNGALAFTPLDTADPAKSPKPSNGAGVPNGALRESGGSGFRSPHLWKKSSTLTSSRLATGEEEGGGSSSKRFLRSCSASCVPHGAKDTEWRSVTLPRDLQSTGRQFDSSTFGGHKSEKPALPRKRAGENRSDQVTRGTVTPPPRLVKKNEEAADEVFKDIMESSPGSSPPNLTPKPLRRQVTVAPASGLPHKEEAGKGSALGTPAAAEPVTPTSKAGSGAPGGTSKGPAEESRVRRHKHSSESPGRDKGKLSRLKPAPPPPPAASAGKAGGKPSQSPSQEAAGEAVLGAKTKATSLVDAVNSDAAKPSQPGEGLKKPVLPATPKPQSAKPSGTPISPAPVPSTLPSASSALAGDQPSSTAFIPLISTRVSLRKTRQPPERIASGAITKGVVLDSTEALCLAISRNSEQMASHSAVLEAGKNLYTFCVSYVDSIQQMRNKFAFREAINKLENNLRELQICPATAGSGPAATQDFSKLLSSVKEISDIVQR

Series 1
Organism: Sarcocystis neurona
Observed: parasite growth
Tested at: 10 µM
Time: 96 h
Notes: first screen
Relative to: untreated
Compound	log2 fold change
c1ccc(CC2=NCCN2)cc1	0.38
CN(C)CCc1c[nH]c2ccc(Cn3cncn3)cc12	0.085
CCOc1ccc2ccccc2c1C(=O)N[C@@H]1C(=O)N2[C@@H]1SC(C)(C)[C@@H]2C(=O)O	0.05
N#Cc1ccc(C(c2ccc(C#N)cc2)n2cncn2)cc1	0.21
CC(C)(C)C(O)/C=C/c1ccc2c(c1)OCO2 (centres unmarked)	0.36
Oc1ncnc2[nH]ncc12	0.14
CC(N)C12CC3CC(CC(C3)C1)C2 (centres unmarked)	0.3
COc1cc(C(=O)NS(=O)(=O)c2ccccc2C)ccc1Cc1cn(C)c2ccc(NC(=O)OC3CCCC3)cc12	-0.2

Series 2
SMILES: CCc1ccccc1C(=O)Nc1n[nH]c2c(C)c(F)c(C3C(C#N)=C(C)N(C)C(C)=C3C#N)cc12
Observed: cell-free assay
Method: competition with immobilised ligand
Tested at: 1 µM
target	remaining binding
Tyrosine-protein kinase ABL1, non-phosphorylated (ABL1, Homo sapiens, UniProt P00519)	78%
ROCK1 (Homo sapiens, UniProt Q13464)	100%
PIKFYVE (Homo sapiens, UniProt Q9Y2I7)	100%
PAK2 (Homo sapiens, UniProt Q13177)	75%
STK38 (Homo sapiens, UniProt Q15208)	100%

Series 3
SMILES: O=C1Cc2c([nH]c3ccc([N+](=O)[O-])cc23)-c2ccccc2N1
Observed: enzyme activity
Action: inhibitor
Tested at: 0.5 µM
Relative to: control
target	remaining activity
MAPK14 (Homo sapiens, UniProt Q16539)	92.1%
DDR2 (Homo sapiens, UniProt Q16832)	103%
CDC42BPB (Homo sapiens, UniProt Q9Y5S2)	83.3%
GRK4 (Homo sapiens, UniProt P32298)	99.3%
MAPK11 (Homo sapiens, UniProt Q15759)	102%
Cyclin-dependent kinase 9, with cyclin K (CDK9, Homo sapiens, UniProt P50750)	24.2%
Cyclin-dependent kinase 1, with cyclin A (CDK1, Homo sapiens, UniProt P06493)	54.5%
MARK4 (Homo sapiens, UniProt Q96L34)	55.4%
CLK3 (Homo sapiens, UniProt P49761)	106%
PLK3 (Homo sapiens, UniProt Q9H4B4)	98.8%
NEK3 (Homo sapiens, UniProt P51956)	108%
MAPK1 (Homo sapiens, UniProt P28482)	106%
AKT2 (Homo sapiens, UniProt P31751)	101%
CLK4 (Homo sapiens, UniProt Q9HAZ1)	86.4%

Series 4
Species: mouse
Sample: microsomes or S9
Tested at: 2 µM
Time: 0.5 h
SMILES	remaining compound [%]
O=c1c2sc3nc(N4CCOCC4)c4c(c3c2ncn1CCc1ccccc1)CCCC4	16
CCCC(O)(CCC)CC(=O)Nc1cc(-c2n[nH]c(=O)[nH]2)ccc1C	55.8
Cc1oc(-c2ccccc2)nc1CNC1(c2ccccc2)CCOCC1	0.94
Cc1ccccc1CS(=O)(=O)c1ncc(CN(CCN(C)C)C(=O)NC(C)C)n1CC(C)C	0.682
CC(C)n1c(C(O)c2nc3ccccc3n2C)nc2ccccc21 (centres unmarked)	0.555

For quick reference, copied from above (series 2):
target	remaining binding
PAK2 (Homo sapiens, UniProt Q13177)	75%
Tyrosine-protein kinase ABL1, non-phosphorylated (ABL1, Homo sapiens, UniProt P00519)	78%
